Assay results from different studies.
Numbered parts are unrelated; each lists some results of a single study. Changes are numbered by the printed parent chain.

Series 1 — method: protein-binding microarray; form: hairpin DNA; sample: in vitro; concentration: not given; baseline: not given; reading: higher = stronger binding; quantity: median fluorescence; shared flanks, not repeated: GAGGCCG … CGGCCTCACACTC
Target: Cyclic AMP-dependent transcription factor ATF-1, full length (ATF1, Homo sapiens, UniProt P18846, residues 1-271)
Setting: whole hairpin DNA, median over replicate spots
Residues (chain): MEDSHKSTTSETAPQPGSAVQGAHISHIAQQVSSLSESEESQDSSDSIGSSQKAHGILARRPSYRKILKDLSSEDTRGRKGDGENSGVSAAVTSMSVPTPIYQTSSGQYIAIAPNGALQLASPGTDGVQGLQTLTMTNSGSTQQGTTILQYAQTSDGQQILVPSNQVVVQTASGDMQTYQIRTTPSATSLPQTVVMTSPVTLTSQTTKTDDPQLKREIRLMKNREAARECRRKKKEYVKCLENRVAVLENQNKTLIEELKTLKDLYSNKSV
ACGACGGCGTGCCTCCTGGCACGCCGTCGT (5mC at 9 15 29 35): 3680 a.u.
ACGCGGTCGTGCCTCCTGGCACGACCGCGT (5mC at 9 15 29 33 35): 3400 a.u.
ACGACGCGGTGCCTCCTGGCACCGCGTCGT (5mC at 9 14 29 35): 5670 a.u.
GACGACGTCAGCCTCCTGGCTGACGTCGTC (5mC at 34): 4680 a.u.
GCTGAGGTCAGCCTCCTGGCTGACCTCAGC (5mC at 32): 3130 a.u.
GATGACGTCAGCCTCCTGGCTGACGTCATC (5mC at 34): 6060 a.u.
GCTGACGTCAGCCTCCTGGCTGACGTCAGC (5mC at 13 31): 3310 a.u.
GCTCACGTCAGCCTCCTGGCTGACGTGAGC (5mC at 11): 4640 a.u.

Series 2 — method: DHFR PCA, deep sequencing; sample: yeast; together with: (+)-ABA 2500 µM; baseline: wild-type fitted maximum; reading: higher = stronger binding; quantity: relative binding score
Target: ABI1, truncated, D143A, DHFR fusion (Arabidopsis thaliana)
Setting: methotrexate growth selection, single substitutions
Starting sequence: PYL1, truncated, DHFR fusion (Arabidopsis thaliana); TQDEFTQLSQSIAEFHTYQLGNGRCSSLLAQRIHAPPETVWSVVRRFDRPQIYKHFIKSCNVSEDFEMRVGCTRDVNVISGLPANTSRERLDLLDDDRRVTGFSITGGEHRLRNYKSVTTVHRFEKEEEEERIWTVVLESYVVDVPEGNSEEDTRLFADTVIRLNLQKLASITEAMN; partner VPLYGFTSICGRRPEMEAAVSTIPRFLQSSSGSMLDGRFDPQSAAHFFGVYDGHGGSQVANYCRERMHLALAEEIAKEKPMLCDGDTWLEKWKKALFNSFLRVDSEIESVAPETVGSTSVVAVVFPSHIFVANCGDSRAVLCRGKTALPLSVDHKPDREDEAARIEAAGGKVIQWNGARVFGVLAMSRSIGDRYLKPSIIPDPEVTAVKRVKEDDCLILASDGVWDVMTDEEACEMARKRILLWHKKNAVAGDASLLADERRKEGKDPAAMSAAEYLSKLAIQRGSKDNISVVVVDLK
R163C: 75.7%
N177C: 98.9%
T73W: 95.5%
F103K: -10.2%
F157Q: 32.4%

Series 3 — method: competition protein-binding microarray; form: double-stranded DNA, one strand shown; sample: in vitro; concentration: 2 µM; together with: Cbf1 competitor, 0.05 µM; reading: higher = stronger binding; quantity: fluorescence intensity
Target: Phosphate system positive regulatory protein PHO4, full length, GST-tagged (PHO4, Saccharomyces cerevisiae, UniProt P07270, residues 1-312)
Setting: whole 60-bp probe, lowest competitor level
Residues (chain): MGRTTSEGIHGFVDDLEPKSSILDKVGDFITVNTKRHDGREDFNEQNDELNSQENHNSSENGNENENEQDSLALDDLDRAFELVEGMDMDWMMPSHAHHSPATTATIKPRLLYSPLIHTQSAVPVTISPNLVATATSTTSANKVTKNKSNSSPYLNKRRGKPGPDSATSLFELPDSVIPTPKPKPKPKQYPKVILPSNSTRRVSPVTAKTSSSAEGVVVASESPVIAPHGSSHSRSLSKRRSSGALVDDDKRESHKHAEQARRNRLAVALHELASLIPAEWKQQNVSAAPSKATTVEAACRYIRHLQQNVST
AAAGCGGTAATTTGAGCAGTGGGTGCAGATATCTATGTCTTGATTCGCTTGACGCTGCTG: 4640 a.u.
CATACCCAACCTTAGCACGTGTTTTAAGATATTTGTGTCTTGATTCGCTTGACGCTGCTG: 21000 a.u.
AAAGCGGTAATTTGGTGCGTGGGTGCAGATATCTATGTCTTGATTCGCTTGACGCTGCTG: 9340 a.u.
AATCCTGGGGTACCGGTCGTGCCGACGCTCGTATTCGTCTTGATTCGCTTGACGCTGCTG: 6410 a.u.
CCTTCCACATTGCGTACCGTGACGGTGGCGGAATTTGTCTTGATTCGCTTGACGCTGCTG: 5430 a.u.
CTCCAGAAATCGGGCCACATGACAAAGCCCGTAGACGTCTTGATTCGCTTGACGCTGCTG: 7850 a.u.
CGGGGTTAAGTTTGTATAGTGGGTGGCTTGCAGCAGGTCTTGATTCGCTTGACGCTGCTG: 4410 a.u.
CTAACGAAGGTTTGTCACTCAACTTACAAGCCAAGTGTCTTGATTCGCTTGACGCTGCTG: 2850 a.u.
ACAAGCGGTTTTTTTTTCGTGGGTAAACATTATTTGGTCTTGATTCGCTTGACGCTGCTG: 4000 a.u.

Single results of other studies
PhoQ, residues 284 288 289 292 302 303 GANMMA
fold induction (PhoP, residues 12 14 15 18 19 NQGLL (Escherichia coli, UniProt P23836); Sort-seq, refers to: YFP reporter; E. coli; PhoQ-PhoP variant library, together with: 10 µM Mg2+; baseline: high Mg2+ state, higher = stronger signaling): 2.21

Repeated from above (series 1):
ACGACGCGGTGCCTCCTGGCACCGCGTCGT (5mC at 9 14 29 35): 5670 a.u.
